Measured values of several laboratories.
Parts stem from different laboratories: compare values within a part only. Positions count from the first letter of the parent shown.

Set 1
Target: CCNA1, cyclin fold, Cln2 fusion (human)
Method: yeast growth competition, sequencing
Medium: yeast
Setting: weak parent motif
Reference: not given
Direction: higher = stronger binding
Starting sequence: PKN2 docking peptide (human); VSAVRKLDFSDTM
Change	normalised enrichment score
VSCVRKLDFSDTM [A3C]	1.31
VSAVRKLDFQDTM [S10Q]	0.924
VSAVRKLDFEDTM [S10E]	0.996
VSAVRKLDFSTTM [D11T]	0.461
VSAVRKRDFSDTM [L7R]	0.0582
VSAVRKQDFSDTM [L7Q]	0.0431
VSAVRLLDFSDTM [K6L]	0.0505
VSAVAKLDFSDTM [R5A]	0.158
VMAVRKLDFSDTM [S2M]	0.56
VSAVRCLDFSDTM [K6C]	0.763
VSAVRKLDFNDTM [S10N]	0.77
VSAVRKLDHSDTM [F9H]	0.252
VSAVRKLDFSQTM [D11Q]	0.882
VSATRKLDFSDTM [V4T]	0.814
VSAVRKTDFSDTM [L7T]	0.33
VSADRKLDFSDTM [V4D]	-0.015
VSAVRYLDFSDTM [K6Y]	0.48
VSAVRKLEFSDTM [D8E]	0.638
VSQVRKLDFSDTM [A3Q]	0.0302
VSAVRKLKFSDTM [D8K]	0.62
VSAMRKLDFSDTM [V4M]	0.783
VSAVRKLLFSDTM [D8L]	-0.0895
VSAVRKLDSSDTM [F9S]	0.439
VSAVLKLDFSDTM [R5L]	-0.0662
VSAVRKLDFSDYM [T12Y]	0.87

Set 2
Target: ABI1, truncated, D143A, DHFR fusion (Arabidopsis thaliana)
Method: DHFR PCA, deep sequencing
Medium: yeast
Setting: methotrexate growth selection, single substitutions
With: (+)-ABA 0.39 µM
Reference: wild-type fitted maximum
Direction: higher = stronger binding
Starting sequence: PYL1, truncated, DHFR fusion (Arabidopsis thaliana); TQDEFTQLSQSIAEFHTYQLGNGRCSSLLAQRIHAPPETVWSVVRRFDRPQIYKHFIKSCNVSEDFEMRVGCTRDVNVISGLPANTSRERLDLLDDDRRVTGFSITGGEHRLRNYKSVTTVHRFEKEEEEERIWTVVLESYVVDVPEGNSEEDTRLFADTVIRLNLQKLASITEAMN
Change	relative binding score
P146W	-1.34%
D97T	49.7%
A84G	51.9%
S42T	16.5%
L28E	1.38%
K116D	-11.6%
H122D	-2.43%
D153G	0.261%
E125I	46.5%
D65F	6.19%
P83H	8.05%
E67Y	7.89%
V100K	-5.16%
L91D	-5.84%
L169W	5.04%
T1R	42.2%
L29Y	1.64%
A170G	2.45%
S9P	4.05%

Set 3
Target: Histone acetyltransferase KAT6A, winged helix 2, GST fusion (KAT6A, Homo sapiens, UniProt Q92794, residues 85-181)
Method: protein binding microarray
Form: double-stranded DNA, one strand shown
Medium: in vitro
Concentration: not given
Setting: 8-mer, flanks averaged, mean of 2 arrays, mostly near background
Reference: not given
Direction: higher = stronger binding
Target sequence (chain): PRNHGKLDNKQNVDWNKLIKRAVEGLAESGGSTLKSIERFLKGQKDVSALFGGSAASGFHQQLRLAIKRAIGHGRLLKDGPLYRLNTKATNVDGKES
Strand	E-score
GTGTAAAA	0.0268
AGTGAGCG	0.0347
AATCGGGT	0.0607
TCGGGACA	-0.0384
AGGAGACG	-0.223
AACAACCT	-0.165
AGTGGGTG	0.127
GAGAAACC	-0.0587
ACGGGCTC	-0.0567
GTGTACTA	-0.111
ATGTCGTG	0.111
CACTCAAG	0.0131
CACTTGGC	-0.0497
GCCACGCC	0.0562
GCGAGCGC	0.175
ACTGCTTG	-0.172
ATTACCTC	-0.0352
AGGGTATC	-0.072
ATACTGCA	0.0736
ACCGTCCC	-0.148
AGTAGGTG	-0.255
CCGACCGA	0.0228
CGTCTCCA	0.0714
CGGCGCCA	0.0961
ACCTATCC	-0.166

Set 4
Target: RING finger protein unkempt homolog, zinc fingers 1-6, GST-SBP tag (UNK, Homo sapiens, UniProt Q9C0B0, residues 30-357)
UniProt Q9C0B0, sequence (30-357, looked up): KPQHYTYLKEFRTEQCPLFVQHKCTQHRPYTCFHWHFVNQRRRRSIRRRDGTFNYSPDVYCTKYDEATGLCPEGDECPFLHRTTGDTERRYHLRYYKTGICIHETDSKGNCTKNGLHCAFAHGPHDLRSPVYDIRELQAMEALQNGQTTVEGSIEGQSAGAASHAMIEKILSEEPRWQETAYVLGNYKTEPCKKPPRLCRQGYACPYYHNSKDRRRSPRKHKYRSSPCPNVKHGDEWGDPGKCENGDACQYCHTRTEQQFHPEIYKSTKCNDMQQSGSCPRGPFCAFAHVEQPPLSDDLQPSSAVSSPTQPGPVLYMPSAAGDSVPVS
Method: RNA Bind-n-Seq
Form: RNA
Medium: in vitro
Concentration: not given
Setting: RNA with constant flanks, human and mouse sites, ends assumed
Reference: input RNA pool
Direction: higher = stronger binding
All sequences stand within: GGGAGUUCUACAGUCCGACGAUC … CAACAGAGGAUUGAGCAUCA
Strand	bound/input enrichment
UCAAGUGACCAGGAGGAAGGCCAUGGGCCUCCUGCCUUUGUGCCAAAAGAUCAAAAAGAAGGUUGUCUUCCCCAGAAGAUCUCUGCAAGUAAACCCGAGUCCCAGAGACGAGGUGCAGGC	0.0482 ratio
AAGAACUAAUUGCAGAGAUAGGUUCAUUAUCUCUUCAUUGUACCAUAGAUGAGAAGCGGUUAGCUGGCUAUUGUCAAGCAUGUGAUGUUCUUGUACCUUCUUCUGAUAGUACAUCUCAAC	0.229 ratio
CGUGGUCGGAUGUCCAUGAAGGAGGUCGAUGAGCAGAUGCUUAACGUGCAGAACAAGAACAGCAGCUACUUUGUGGAAUGGAUCCCCAACAAUGUCAAGACAGCCGUCUGUGACAUCCCA	0.0692 ratio
AAAAUUAAGCCUCAGCAUUCUGUAUCGAAAAGAAUUAUUAUCUUUUCCUCCUGUCUUUUGUAAUAACUUCAGAUUUUAUUAAUUCAAAUGGCUUGGUCUUCCUGUUUUGUAAUCAUGACU	1.19 ratio
AUUAUUCCAUCAUUUGUGUUGAUGGAUAUCCAGGCUUCUACAGUGGUCACCUAUGUGUAUCAGCUAAUUGGAGAUGAUGUGAAAGUAGAACGAAUCGAAUACAAAAAACCUUAAAGCCAG	0.248 ratio
CAGAUGAGGAAACUGAGGCCCAGAGAAGCAGAAAGGACUUCUCUGAACCUCACUGUAAAUUAGCAUUAAAUGCAGCCGUCCUACUACUGGCAUUUUACCUACAAAAAUUUUGCUAGGGAU	0.556 ratio
CCUAUUUUAUUAAUUUACUUCCAAACGCAACGAAAGGUCCAUGGACAAUUUGUGGGCCAUUUAAUUCAGGGCCCCCAAUUCGUACGUGGAGAAGUGGGAAUGCAAAAGUACUUUGACCUU	0.389 ratio
AGCUCCAGUGGUAGCUUUGGUGGUACACUCAGUACCAGUAUCUGCUUCGGUGGCUCUCCCUGCACCAGCACUGGCUUUGGAGGCACACUUAGCACCAGUGUCUCCUUUGGUGGCUCUUCC	0.214 ratio
AGCACAGAGAGCACAAGACAGAGAUCCUUGUCAUAAUGAGACAGAGAAAGUAACCAAUUUUGGGUAUAAGAAGUGUCAAGCCGGGCAGUGGUAGUGCACGCCUUUAAUCCCAGCACUCGG	0.219 ratio
CCGCAGGGGUCUGGCUUAUGUGUGCCACCAGCGAGGAGAGGAGCUCAAAGGCCAUAAUACUCUGCCUUCACCCUGGAGAGACCGUCCCAUGGAGGAGUCACUGCUGCUCUUUGAGGCAAU	0.107 ratio
CCUAGUAAAGAUGUUGUGAUGGUACAUGAACCAAAACAAAAAGUAGAUUUAACAAGGUACCUAGAAAACCAAACAUUUCGUUUUGAUUAUGCCUUUGAUGACUCAGCUCCUAAUGAAAUG	10.2 ratio

Set 5
Target: Interferon regulatory factor 7, full length, phosphomimetic (IRF7, Homo sapiens, UniProt Q92985, residues 1-503, S101K/S471D/S472D/S475D/S476D/S477D/S483D/S484D/S487D)
Method: protein-binding microarray
Form: double-stranded DNA, one strand shown
Medium: in vitro
Concentration: 250 nM
Setting: 60-bp whole probe
With: salmon DNA 0.4 mg/ml
Reference: random background probes
Direction: higher = stronger binding
All sequences stand within: GCCTAGCAC … GTCTTGATTCGCTTGACGCTGCTG
Target sequence (chain): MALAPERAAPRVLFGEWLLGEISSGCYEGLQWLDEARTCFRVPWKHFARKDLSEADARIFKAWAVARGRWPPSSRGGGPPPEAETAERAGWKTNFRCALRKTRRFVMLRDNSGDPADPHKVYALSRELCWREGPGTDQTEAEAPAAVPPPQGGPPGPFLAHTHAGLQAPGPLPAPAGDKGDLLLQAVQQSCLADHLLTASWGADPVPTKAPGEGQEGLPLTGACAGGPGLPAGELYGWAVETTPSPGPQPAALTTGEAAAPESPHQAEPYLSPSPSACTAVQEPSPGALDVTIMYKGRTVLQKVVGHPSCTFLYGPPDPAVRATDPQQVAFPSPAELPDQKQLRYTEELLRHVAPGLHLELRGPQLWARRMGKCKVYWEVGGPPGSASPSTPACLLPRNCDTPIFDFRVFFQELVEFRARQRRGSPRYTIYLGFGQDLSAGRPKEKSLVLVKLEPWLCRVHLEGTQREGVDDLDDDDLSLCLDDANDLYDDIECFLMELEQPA
Strand	log fluorescence
GACGATTTCAGTTTCGAGTCGTGCTAG	8.65 z-score
GATGGTATTTGCCTGTGGTCGTGCTAG	-0.681 z-score
TTAGATCTCAATCTCGATTAGTGCTAG	0.407 z-score
TCATTTTTTTTAATTGAACTGTGCTAG	0.741 z-score
TTAGACTTCAGTATCGATTAGTGCTAG	0.598 z-score
GACGATTTCGGACTGGGGACGTGCTAG	0.515 z-score
GACGGTTTCCGTTCCCTGACGTGCTAG	7.34 z-score
TTAGGACTGGGAACTGGGTTAGTGCTA	-0.387 z-score
TTAGGTTTCGGACTGGTTTAGTGCTAG	4.44 z-score
GACTGTATCGGTATCGGGACGTGCTAG	0.559 z-score
TCAGAAATTCCTCTGAGACTGTGCTAG	-0.285 z-score
TTAGGTATCGACACTGGGTTTGTGCTA	-0.26 z-score
TTAGATTTCGGGTATAGATTAGTGCTA	0.539 z-score
TCAGTTCTCCCTTTCAGACTGTGCTAG	1.4 z-score
TAAGGTATAAACTTGGGAAAGTGCTAG	-0.0121 z-score
GGATGAGCAAGGGGGCCTCGGTGCTAG	0.376 z-score
GAGGGTTTCGGTTCCGGGACGTGCTAG	11.1 z-score
TTAGATTCCCGTTTCGATTAGTGCTAG	6.56 z-score
TCATGTATGAGCCTCTGACTGTGCTAG	-0.336 z-score
GACGGTTCCGGGTTCGGGACGTGCTAG	2.61 z-score

For quick reference, copied from above (set 5):
Strand	log fluorescence
TTAGGTTTCGGACTGGTTTAGTGCTAG	4.44 z-score
GACTGTATCGGTATCGGGACGTGCTAG	0.559 z-score
TCAGAAATTCCTCTGAGACTGTGCTAG	-0.285 z-score
TTAGGTATCGACACTGGGTTTGTGCTA	-0.26 z-score
TTAGATTTCGGGTATAGATTAGTGCTA	0.539 z-score
TCAGTTCTCCCTTTCAGACTGTGCTAG	1.4 z-score
TAAGGTATAAACTTGGGAAAGTGCTAG	-0.0121 z-score
